Results collected from several papers.
Parts stem from different laboratories: compare values within a part only. Positions count from the first letter of the parent shown.
UniProt O24409, sequence (whole entry, looked up): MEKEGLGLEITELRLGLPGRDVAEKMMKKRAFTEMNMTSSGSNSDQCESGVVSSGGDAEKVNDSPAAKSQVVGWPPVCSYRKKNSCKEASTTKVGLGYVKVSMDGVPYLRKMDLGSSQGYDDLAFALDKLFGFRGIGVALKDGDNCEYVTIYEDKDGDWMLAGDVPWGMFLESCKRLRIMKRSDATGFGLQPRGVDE
UniProt Q93WC4, sequence (whole entry, looked up): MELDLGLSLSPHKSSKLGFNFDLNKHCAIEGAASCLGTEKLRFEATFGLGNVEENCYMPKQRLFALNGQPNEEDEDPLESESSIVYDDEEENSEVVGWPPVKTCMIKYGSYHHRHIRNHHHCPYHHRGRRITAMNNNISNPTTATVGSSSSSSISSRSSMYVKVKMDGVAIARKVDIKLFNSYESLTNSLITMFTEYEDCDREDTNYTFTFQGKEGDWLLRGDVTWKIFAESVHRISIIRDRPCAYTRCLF
UniProt Q9C5W9, sequence (whole entry, looked up): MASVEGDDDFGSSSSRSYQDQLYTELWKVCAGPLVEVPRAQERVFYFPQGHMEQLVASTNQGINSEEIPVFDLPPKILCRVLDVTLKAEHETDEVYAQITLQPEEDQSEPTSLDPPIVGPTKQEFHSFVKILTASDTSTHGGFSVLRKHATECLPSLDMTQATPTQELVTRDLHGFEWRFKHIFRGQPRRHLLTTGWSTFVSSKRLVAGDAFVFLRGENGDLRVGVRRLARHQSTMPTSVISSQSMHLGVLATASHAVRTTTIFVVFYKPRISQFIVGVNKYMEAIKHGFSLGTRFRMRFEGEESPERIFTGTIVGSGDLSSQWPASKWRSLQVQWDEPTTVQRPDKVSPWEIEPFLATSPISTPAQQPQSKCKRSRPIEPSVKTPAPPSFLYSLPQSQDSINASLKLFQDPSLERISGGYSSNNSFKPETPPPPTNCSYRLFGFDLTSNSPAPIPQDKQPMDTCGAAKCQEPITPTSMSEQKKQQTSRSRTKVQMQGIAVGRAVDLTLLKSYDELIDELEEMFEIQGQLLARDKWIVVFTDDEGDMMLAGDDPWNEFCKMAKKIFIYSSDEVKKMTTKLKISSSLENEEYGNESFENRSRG
UniProt Q8L7G0, sequence (whole entry, looked up): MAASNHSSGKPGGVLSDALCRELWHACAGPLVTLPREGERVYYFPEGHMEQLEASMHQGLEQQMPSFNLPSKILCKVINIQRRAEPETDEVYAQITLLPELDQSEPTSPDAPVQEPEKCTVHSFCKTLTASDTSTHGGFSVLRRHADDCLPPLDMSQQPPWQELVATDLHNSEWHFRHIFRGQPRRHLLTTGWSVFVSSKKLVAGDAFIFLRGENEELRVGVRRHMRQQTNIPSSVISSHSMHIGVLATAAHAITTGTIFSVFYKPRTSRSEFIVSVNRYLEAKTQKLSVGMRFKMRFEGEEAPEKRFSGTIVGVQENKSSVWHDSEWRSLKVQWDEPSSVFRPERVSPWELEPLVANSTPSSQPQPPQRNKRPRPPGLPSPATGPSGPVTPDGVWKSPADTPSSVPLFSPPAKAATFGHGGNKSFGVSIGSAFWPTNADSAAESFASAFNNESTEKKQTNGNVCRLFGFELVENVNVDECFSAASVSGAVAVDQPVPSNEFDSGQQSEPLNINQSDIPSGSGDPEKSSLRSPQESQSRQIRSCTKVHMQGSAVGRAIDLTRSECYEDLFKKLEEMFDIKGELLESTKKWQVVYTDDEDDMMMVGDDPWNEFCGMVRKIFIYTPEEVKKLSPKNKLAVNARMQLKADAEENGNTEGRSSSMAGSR
UniProt O23661, sequence (whole entry, looked up): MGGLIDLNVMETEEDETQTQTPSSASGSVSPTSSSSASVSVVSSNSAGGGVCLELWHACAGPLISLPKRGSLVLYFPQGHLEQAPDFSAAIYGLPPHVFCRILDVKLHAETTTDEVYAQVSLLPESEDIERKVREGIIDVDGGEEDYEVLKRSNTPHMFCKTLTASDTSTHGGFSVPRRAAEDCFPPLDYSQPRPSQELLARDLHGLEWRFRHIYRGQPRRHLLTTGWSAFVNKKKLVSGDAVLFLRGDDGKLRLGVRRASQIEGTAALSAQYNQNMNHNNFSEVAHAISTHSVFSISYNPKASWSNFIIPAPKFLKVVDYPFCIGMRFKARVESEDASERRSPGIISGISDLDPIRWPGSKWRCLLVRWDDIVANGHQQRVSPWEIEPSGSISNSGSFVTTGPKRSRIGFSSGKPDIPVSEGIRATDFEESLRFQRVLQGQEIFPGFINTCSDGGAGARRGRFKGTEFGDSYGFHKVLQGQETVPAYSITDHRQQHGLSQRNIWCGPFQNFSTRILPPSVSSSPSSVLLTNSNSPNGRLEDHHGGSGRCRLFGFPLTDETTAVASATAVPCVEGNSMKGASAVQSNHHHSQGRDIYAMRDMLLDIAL

Set 1 — Molecule: B1 (IAA9); technique: two-hybrid; reference: out of 4 tests; direction: higher = firmer interaction
B1: IAA9 (Arabidopsis thaliana, UniProt Q38827); chain MSPEEELQSNVSVASSSPTSNCISRNTLGGLKEHNYLGLSDCSSVGSSTLSPLAEDDKATISLKATELTLGLPGSQSPARDTELNLLSPAKLDEKPFFPLLPSKDEICSSSQKNNASGNKRGFSDTMDQFAEAKSSVYTEKNWMFPEAAATQSVTKKDVPQNIPKGQSSTTNNSSSPPAAKAQIVGWPPVRSYRKNTLATTCKNSDEVDGRPGSGALFVKVSMDGAPYLRKVDLRSYTNYGELSSALEKMFTTFTLGQCGSNGAAGKDMLSETKLKDLLNGKDYVLTYEDKDGDWMLVGDVPWEMFIDVCKKLKIMKGCDAIGLAAAPRAMEKSKMRA
The positive tests was 1 (IAA29 (Arabidopsis thaliana, UniProt Q93WC4)).
For ETT (Arabidopsis thaliana, UniProt O23661): positive tests read 2.
For IAA19 (Arabidopsis thaliana, UniProt O24409): positive tests read 4.
The positive tests was 1 (ARF18 482-602 (Arabidopsis thaliana, UniProt Q9C5W9)).
The positive tests was 0 (ARF1 538-665 (Arabidopsis thaliana, UniProt Q8L7G0)).

Set 2 — target: CCND1, cyclin fold, Cln2 fusion (human); technique: yeast growth competition, sequencing; medium: yeast; notes: strong parent motif; reference: not given; direction: higher = stronger binding
Starting sequence: CDC42EP1 docking peptide (human); SLVVGKLSFDSSP; partner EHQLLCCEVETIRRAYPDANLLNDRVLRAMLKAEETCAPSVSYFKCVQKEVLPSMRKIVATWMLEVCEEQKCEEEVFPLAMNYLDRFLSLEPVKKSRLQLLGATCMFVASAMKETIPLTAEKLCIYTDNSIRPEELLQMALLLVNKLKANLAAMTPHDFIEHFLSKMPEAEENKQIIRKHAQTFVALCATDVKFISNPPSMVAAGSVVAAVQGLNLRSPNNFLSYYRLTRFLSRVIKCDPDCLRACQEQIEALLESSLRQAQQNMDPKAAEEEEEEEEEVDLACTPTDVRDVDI
`S1A` — result for “normalised enrichment score”: 0.595.
`L2A` — result for “normalised enrichment score”: 0.857.
`K6A` — result for “normalised enrichment score”: 0.728.
`P13A` — result for “normalised enrichment score”: 0.267.
Under “normalised enrichment score”, `S11A` is recorded as 0.871.
For `V4A`, “normalised enrichment score” read 0.747.

Set 3 — technique: RNA Bind-n-Seq; form: RNA; medium: in vitro; concentration: 365 nM; reference: no-protein control; direction: higher = stronger binding
Target: RNA binding protein fox-1 homolog 2, RRM domain, GST-SBP tag (RBFOX2, Homo sapiens, UniProt O43251-10, residues 100-194)
Notes: natural RNA segment, single round, ends assumed
Construct (chain): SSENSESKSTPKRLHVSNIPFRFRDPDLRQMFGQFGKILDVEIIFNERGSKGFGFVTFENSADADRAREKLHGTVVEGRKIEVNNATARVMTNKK
Under “RBNS enrichment (R)”, `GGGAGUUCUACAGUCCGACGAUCGUGAGAGGGGAUUUGAAUCUGUUUGCAAAUUGUCCAACCCACCAGGUCAACGUGAGGGGCUUACAUUCUGGGUUUGAUAAGAAAAGUGUUCAUUCAUGACUGCUAUGUCCUGGAAUUCUCGGGUGCCAA` is recorded as 1.37.
`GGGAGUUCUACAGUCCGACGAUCCAUGGACAGUUAUGUAUAUCUACUUGUAUAGAGGGGGACAGUUUUCCACAUCGAUCCUUGCCCUCUUCAGGCAGUACUUCAGGGCCCUCACCAGGACCCCUUAUGUAGUGUGGAAUUCUCGGGUGCCAA` — result for “RBNS enrichment (R)”: 0.225.
Under “RBNS enrichment (R)”, `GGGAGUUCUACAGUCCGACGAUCUCCAUGCACAGGCCCAAGAGUCACCUCCAAUGAAAUAAAUGUAAUACUGAAGUAUGCCAUGAUGUUUGUUGUUUUCUUUCAUCGUAAGCCUGUAAGCAGGAAAAAUACGUUGGAAUUCUCGGGUGCCAA` is recorded as 0.351.
`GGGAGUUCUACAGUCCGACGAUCUAAAUAAAAUUAUGCUUUGUGGCUAUCCAUCAACAUAAGUAUAAAAAGAAAGAACGCUUCAACCCCCUUCCCCAUUUAGAUUAUUUAUUAACAUAUUUCGAAAGUAAGGUUGGAAUUCUCGGGUGCCAA`: “RBNS enrichment (R)” 0.477.
`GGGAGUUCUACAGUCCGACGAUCGGGUCCCUGGAAAGGGGGAGAGUUGCCCUUUACAGAAUCACUCGAGCCCUUUCCAGCACUGUUGGUCUGAUGAACAAGGUUGUUUUACCUUAUUUUCUCUUGGAACAUAUUGGAAUUCUCGGGUGCCAA` — result for “RBNS enrichment (R)”: 0.239.
`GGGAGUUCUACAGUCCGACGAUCACAGGGUUGGGCCUAGACGGAGUCCCCUGCAAUUAGCUUUCUAGGAUCUACCACACUUCUGUGAAAGCCACCUUCCCCCCACAUCUCAGUUCUCUUGGCCUCAAAACUCAUGGAAUUCUCGGGUGCCAA`: “RBNS enrichment (R)” 1.29.
Under “RBNS enrichment (R)”, `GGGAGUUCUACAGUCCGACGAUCGUCACCUCUGCUUGGGCUGAUUGACAGAGGUCAGUCAUUACAGCCCCUUAUGCCUCUUCCAUGGGAACAAAUACUGUGCAGAUGUUUGUAAGUUAAACAUAAGACACAGGUGGAAUUCUCGGGUGCCAA` is recorded as 0.738.
For `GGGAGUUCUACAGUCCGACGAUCGCAAGUGCGAUCAGCAACAUUUUUCAACUUUCGCGCACUGUAAACCUAUUGCAUUCUUAGGCUACUGUGAGGUCUAUGUUUCUUGUACCUGAAAUUGUCCUUUGGACUCCUGGAAUUCUCGGGUGCCAA`, “RBNS enrichment (R)” read 3.57.
Under “RBNS enrichment (R)”, `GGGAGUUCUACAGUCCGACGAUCCUUCUUCACACCGGUACAUUCUCUGCAUCUGUUUAUAUGAAAUAACACAAGCUAAUCUGUACCUUUAUAUAUAUGUGUGUGUACAUAUAUACAUGUAUAAACUGUAUAGUUGGAAUUCUCGGGUGCCAA` is recorded as 0.373.
`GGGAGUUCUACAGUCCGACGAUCAGAAGGAAGAGUGAGGGGUCUGUCCAUGGGGUGGCAGUGAUUUCACACCCGCCUUUCUUGAAUGGCUUCGUGUUACUCAGCCGUGCCCUGGCAGGAAUGGAACUCCAUCAUGGAAUUCUCGGGUGCCAA`: “RBNS enrichment (R)” 0.356.
`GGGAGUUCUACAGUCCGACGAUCUUGCCGGGGAGGAGGAUGCUCUGAGAUUCAGGGUGGGGCUGGCAACCCCUGAAGAGAACACUUCCUGUUGGUCUGUCUCUUCCCACCUUCCAUCUGCACACACCCCCAAGUGGAAUUCUCGGGUGCCAA`: “RBNS enrichment (R)” 0.706.
`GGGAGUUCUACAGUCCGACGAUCCUCUGAACGGUCGCCACCUCAGGGCAUUUUCCUGAGGCUCUGCUGCAAAAAAAAAAAAAAAAAUGAACACCGUGGACAACCCAGCCAGGCAGAGAGGCAGGCUGCCAGGCUGGAAUUCUCGGGUGCCAA` — result for “RBNS enrichment (R)”: 0.628.

Set 4 — technique: RNA Bind-n-Seq; form: RNA; medium: in vitro; concentration: 100 nM; reference: input RNA pool; direction: higher = stronger binding
Target: RING finger protein unkempt homolog, zinc fingers 1-6, SBP tag (UNK, Homo sapiens, UniProt Q9C0B0, residues 30-357)
UniProt Q9C0B0, sequence (30-357, looked up): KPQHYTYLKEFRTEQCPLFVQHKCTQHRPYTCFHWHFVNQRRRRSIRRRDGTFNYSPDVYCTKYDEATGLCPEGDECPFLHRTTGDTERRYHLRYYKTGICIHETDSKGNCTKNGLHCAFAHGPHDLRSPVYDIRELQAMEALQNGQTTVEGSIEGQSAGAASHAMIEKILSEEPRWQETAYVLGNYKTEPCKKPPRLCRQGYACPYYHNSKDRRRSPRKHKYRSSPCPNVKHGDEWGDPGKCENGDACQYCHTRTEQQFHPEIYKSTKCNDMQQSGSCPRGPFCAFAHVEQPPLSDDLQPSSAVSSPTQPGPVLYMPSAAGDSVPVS
Notes: RNA with constant flanks, vertebrate orthologous sites, ends assumed
The bound/input enrichment of `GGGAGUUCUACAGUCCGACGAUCAAUCAAUAGAAUUUCACAAUACUAAAGUUGCAGUUGAAAGGAUAUUCAAGUAUGUGUUGGUAGUUACUAAAAGAAUUAUAGCUGUUAUUGCCUUGUAUUUAUAGCCCUUGUUUCAGGUUUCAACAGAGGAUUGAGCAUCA` is reported as 0.997 ratio.
With `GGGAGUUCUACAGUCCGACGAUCAAAUAUACUUCAUGCCAUGGACUCCGUACCGCACGGAUACUUUGAUAGAAUAUGCUUCCUUGGAGGACUUCCAGAACGGACGCCAGCAGACGACGUACAAACUCCCAAACCGAGUGGAUGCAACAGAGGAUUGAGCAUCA` the bound/input enrichment was 0.594 ratio.
The bound/input enrichment of `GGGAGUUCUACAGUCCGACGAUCACAGCUGCAGCACAGGCUGUUUGAGCUUUGGGAAAAUGAGCUUUGCUUUUUAUAUUUAAAUAGGAUACUUUUAUAUGAUGGGUGCUUUGAGUGUGAAUGCAGCAGGCUCUCCAUUUCAGACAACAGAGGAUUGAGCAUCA` is reported as 1.2 ratio.
The bound/input enrichment of `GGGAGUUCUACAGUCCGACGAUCACUGUUGUUAAGCGCUGUGUUCCAGACCGUGUCUGACUUAGCGUCACCUAGGCGACCUUCUAGUCCCAUUCGGAUGAGCUCGGGUUGAUAGAGUGCAGGGGAGCGCCACCUCGUAGCCGCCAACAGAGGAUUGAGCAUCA` is reported as 0.491 ratio.
For `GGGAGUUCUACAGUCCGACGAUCAUGGUGGUUGUACAUUAUAGUUUCAUUUAGAAAAUAUAAAAAUUCAUUUUGUUUUGAAGUUAGGUAUUAAACUGGAAUAGUUAUGAUACCCCUGAGAGUGGGGACAGUUGUGCCCUUACCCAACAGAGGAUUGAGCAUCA`, the bound/input enrichment was 2.67 ratio.
`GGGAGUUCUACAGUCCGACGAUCAAUUUUUUAAAGUUUUUUUAAUUUAAUUUUUCCUUUGGGGGUACAGUUUGCUCUACCAAAUAGUGAUCGUAACAAAUUGAUCUGUUUUGGAUGUUGCUAUAGUGACAUGCAGUUAUAUAUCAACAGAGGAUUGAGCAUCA` gave a bound/input enrichment of 1.11 ratio.
The bound/input enrichment of `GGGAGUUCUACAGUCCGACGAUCUCUUCAACUUGUUCUAGCUUGUGACCCUUCAAAGCUGGGUCAGGUGUUAGUGCUAGGUACUAGAAAUUUUCAUUUCUUGAUUGCCACUGCUCAGAGAGACAGAUGUUGAAAACAGGAAUACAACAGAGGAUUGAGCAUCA` is reported as 0.271 ratio.
`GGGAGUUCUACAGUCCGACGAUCAGCAACCCAAGGAUUCAGGACUGGUUUUACAAAUAUCCCGAGUAGAUAUGGAACUAACAAUAGAAUUGGACAACCAAGACCAUGAUGUACUAUAAUUUAAUUUAUUUUUAUGAGGAAUAUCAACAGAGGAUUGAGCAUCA` gave a bound/input enrichment of 0.797 ratio.
For `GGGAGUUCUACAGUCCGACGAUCAAUUGAAUAAAAAUGUUUCCACUGGGUUUUGCCUGUAAGAAAAAAAUGUACCCGAGCCCAUAGAGCUUUUUAAUAAUAGCACUAACCAAUGCCUUUUUAGAUGUAUUUUUGAUGUAUAUACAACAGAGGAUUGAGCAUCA`, the bound/input enrichment was 1.4 ratio.
`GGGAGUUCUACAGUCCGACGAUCAAUCAGUAGAAUUCCAUAAUACUAAAGUUGCAGUUGAAAGGAUAUCCAAGUAUGUGUUGGUAGUUACUAAAAGAAUUAUAGCUGUUAUUGCCUUGUAUUUAUAGCUCUUGUUUCAGGUUUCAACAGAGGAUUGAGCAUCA` gave a bound/input enrichment of 0.721 ratio.
The bound/input enrichment of `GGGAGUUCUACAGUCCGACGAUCGAGUGCUUAAGCCGCCAACAGUUAGAAGAUGCUAUUUAUUUGUGUCUGUAAGUUUGUACAUAGUAAUGCCAGCCUUGUUGCUGAAUUUUUUAUUUGGGGGGAGAUGAGUUUGAAUUUUGUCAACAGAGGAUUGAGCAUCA` is reported as 2.38 ratio.

Repeated from above (set 4):
`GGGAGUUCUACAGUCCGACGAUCAAUCAGUAGAAUUCCAUAAUACUAAAGUUGCAGUUGAAAGGAUAUCCAAGUAUGUGUUGGUAGUUACUAAAAGAAUUAUAGCUGUUAUUGCCUUGUAUUUAUAGCUCUUGUUUCAGGUUUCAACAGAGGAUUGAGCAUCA` gave a bound/input enrichment of 0.721 ratio.
`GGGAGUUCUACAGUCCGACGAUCAGCAACCCAAGGAUUCAGGACUGGUUUUACAAAUAUCCCGAGUAGAUAUGGAACUAACAAUAGAAUUGGACAACCAAGACCAUGAUGUACUAUAAUUUAAUUUAUUUUUAUGAGGAAUAUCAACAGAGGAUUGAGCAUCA` gave a bound/input enrichment of 0.797 ratio.
`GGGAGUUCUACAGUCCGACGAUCAAUUUUUUAAAGUUUUUUUAAUUUAAUUUUUCCUUUGGGGGUACAGUUUGCUCUACCAAAUAGUGAUCGUAACAAAUUGAUCUGUUUUGGAUGUUGCUAUAGUGACAUGCAGUUAUAUAUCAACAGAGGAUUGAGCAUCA` gave a bound/input enrichment of 1.11 ratio.
For `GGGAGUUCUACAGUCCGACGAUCAUGGUGGUUGUACAUUAUAGUUUCAUUUAGAAAAUAUAAAAAUUCAUUUUGUUUUGAAGUUAGGUAUUAAACUGGAAUAGUUAUGAUACCCCUGAGAGUGGGGACAGUUGUGCCCUUACCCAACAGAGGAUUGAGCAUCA`, the bound/input enrichment was 2.67 ratio.
